Experimental data pooled from the literature.
Numbered parts are unrelated; each lists some results of a single study. Substitutions count along the parent as printed.

Set 1
Target: CCNB1, cyclin fold, Cln2 fusion (human)
Technique: yeast growth competition, sequencing
Matrix: yeast
Setting: strong parent motif
Relative to: not given
Direction: higher = stronger binding
Starting sequence: E2F1 docking peptide (human); PPVKRRLDLETDH
Substitution	normalised enrichment score
P1A	1.78
H13P	1.04
L7M	0.00561
T11L	1.86
P2N	1.05
E10K	-0.351
D8A	0.832
K4S	1.53
R6S	0.891
R5V	-0.121
D8S	1.21
R5A	0.387
D12I	0.527
D12S	1.36
D8V	1.37
D8K	1.03
V3Q	1.12
E10I	1.35
T11C	1.57
D12G	1.07
P1N	1.03
E10F	1.94
P2T	0.593
K4H	0.758
P2M	0.297

Set 2
Target: RNA binding protein fox-1 homolog 2, RRM domain, GST-SBP tag (RBFOX2, Homo sapiens, UniProt O43251-10, residues 100-194)
Technique: RNA Bind-n-Seq
Form: RNA
Matrix: in vitro
Tested at: 365 nM
Setting: natural RNA segment, single round, ends assumed
Relative to: no-protein control
Direction: higher = stronger binding
Residues (chain): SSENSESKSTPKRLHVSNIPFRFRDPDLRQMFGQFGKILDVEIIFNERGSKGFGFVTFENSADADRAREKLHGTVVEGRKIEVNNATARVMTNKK
Oligonucleotide	RBNS enrichment (R)
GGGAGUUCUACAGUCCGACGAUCAUUUUCCAUGAGAAACAACAGAGUUAACCUGUGGCAUUAGGAGACCUACUUCAUGUGGACCCUUUUUUUCCUUCAGUUUAACUUUUCUGGAGCAGUGUGCUGCGUAGUUCUGGAAUUCUCGGGUGCCAA	0.296
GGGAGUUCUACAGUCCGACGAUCCACCAUCCACCAGACAGACCACCUGACCCCUUCUCAACUCUGUAACAUGGACGCAACCUCAACCCAGCGCAGUUACAACUUCACUAUCAGCGGAAGGGGAGAAAAACCGAUGGAAUUCUCGGGUGCCAA	0.454
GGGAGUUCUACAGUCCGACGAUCCUUGUCCCUCAGCUCACACUUGGCGGUGGCCUCUCGAUCACUCUGGGUCUUGGGAGCUCUUGCCUUCACCUGUGGAUCCACUUAAGACAUUGUGGUCUGAAGCUCAGGCCUGGAAUUCUCGGGUGCCAA	0.289
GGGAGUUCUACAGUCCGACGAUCUUGGCCAGACCCUCUGUCCAAGGCUCAUUAGAAGGCUGGGGUUGUGUUCAGGUGACAGACUUUAUCAAAACUAUUGCUGUUUUGGCAUGAGUUGUGUUUCUGGACUGUUUUGGAAUUCUCGGGUGCCAA	0.374
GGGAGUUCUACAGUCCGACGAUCUUCGGCUGCCCAGCUCCGUGGAUAGACCUCCUCUGGGGGUGGUGCUGCUUGUAUGUUUACAUGAAAUUCUCCCAGGACAGACCACCAACCAUGGACACAGAGACCUUAGGUGGAAUUCUCGGGUGCCAA	0.45
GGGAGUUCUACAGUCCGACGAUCUUAAUCAGAUAGAAGUUCUAGUCAAGAGGGAUAUUGUUGAAGUUACCUCUUUUAGCCUAGAUACAUGGAUUCUUUUCAAAUCAGGAAAGAUUAGAAAAGGAACCCAAAAAUGGAAUUCUCGGGUGCCAA	0.303
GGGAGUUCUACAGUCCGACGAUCCUUGCAGAAUCGUCUUCAUUUCAUCAGACCUAUUGGGGGUGAACAGUAAUUAAUAGGAGGCCCAGCCUGGCAGACGCUUGCUGACGCUCCUUGGCUCUUGCCUGCUUGUCUGGAAUUCUCGGGUGCCAA	0.552
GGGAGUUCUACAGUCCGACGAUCGUCUUUCCCUCAGUAGCGGUUUCUUUCAGGUUAACAAGAGGCAUUUGUGCACACACACAGGGCUCUUGUGUGUGUUGUCAAGGGGACCCUCCGUGGCCUCCCGUGAGUGCUGGAAUUCUCGGGUGCCAA	0.314
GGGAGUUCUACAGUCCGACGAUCAUAUGGGUGUUACAUUGCAAAAAUCUCUAUCUUUGUUCUAUUCACAUGCUUAAAGAAGUAAGAAAUCUUUUGUGGAUAUGUAAUUAUACAUAUAAAGUAUAUAUAUAUGUUGGAAUUCUCGGGUGCCAA	0.661
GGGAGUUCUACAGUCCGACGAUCCUCUCCCACCCUGGGGGCAGGGUUCUAAGUAUGGGGAGUUCUUAUGCUGGCUUUUAGUGGUGUGUGUAGUUUGCUUGUAAGGGUGGGUUUGGCCCUGCAGGCCAGCUGUUUGGAAUUCUCGGGUGCCAA	1.3
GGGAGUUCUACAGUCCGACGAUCGUUUUACAGCAGUUUUGAAAAACACAUACUAUGCCACCAAUUGUCAUAUUAUUUUUAGAUGAUGUAACAUAGCCAUCAAAAUUAAUAUUAUGUAAUGCCUAAUACUUAGUUGGAAUUCUCGGGUGCCAA	0.846
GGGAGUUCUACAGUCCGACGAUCGAGUCCUACCCACUCUGUCCCCAUCACCUUUCUCCACUGGGUGCAGAUCCUAGCUCCGCCUCCUGGGCAGUCCUUCUGAAAAGUCCCAUGUAAGCAGCAAAGGGGCGUAAUGGAAUUCUCGGGUGCCAA	0.447

Set 3
Target: Prothrombin, mature alpha-thrombin (F2, Homo sapiens, UniProt P00734)
Technique: aptamer microarray, sandwich
Form: DNA with 2'F-ANA
Matrix: in vitro
Tested at: 200 nM
Setting: whole 15-mer aptamer, many near background
With: Cy3 exosite-II aptamer, 400 nM
Direction: higher = stronger binding
Oligonucleotide: GGTTGGTGTGGTTGG
Modification	mean fluorescence intensity [a.u.]
2'F-ANA at 3 4 5 6 7 8 11 13	69.9
2'F-ANA at 2 3 4 5 6 7 9 10 14 15	56.2
2'F-ANA at 2 6 9 10 11 12 13 14	90.4
2'F-ANA at 1 4 5 11 12 14 15	44.5
2'F-ANA at 2 3 6 7 10 13 14 15	244
2'F-ANA at 4 5 6 8 11 13 14 15	42.3
2'F-ANA at 5 6 9 11 12 13	89.6
2'F-ANA at 1 4 5 6 7 10 12 13 14	45.1
2'F-ANA at 3 5 6 8 9 11 12 14 15	314
2'F-ANA at 1 2 3 5 6 8 10 12 13	49.6
2'F-ANA at 1 3 4 6 14	78.7
2'F-ANA at 1 2 4 11 13 15	79.6
2'F-ANA at 2 7 10 11	155
2'F-ANA at 1 4 5 7 8 14	52.5
2'F-ANA at 1 2 3 4 8 9 10 11 12 14 15	52.1
2'F-ANA at 2 4 5 6 7 9 11 12 14 15	50
2'F-ANA at 1 2 3 4 6 7 8 9 10 11 12 13	71.4
2'F-ANA at 1 3 5 6 9 10 11 13 14 15	52.5
2'F-ANA at 2 3 8 10 11 13	324
2'F-ANA at 1 2 5 6 7 9 10 11 12 15	50.4

Set 4
Target: Histone acetyltransferase KAT6A, both winged helices, GST fusion (KAT6A, Homo sapiens, UniProt Q92794, residues 1-181)
Technique: protein binding microarray
Form: double-stranded DNA, one strand shown
Matrix: in vitro
Tested at: not given
Setting: 8-mer, flanks averaged, mean of 2 arrays, mostly near background
Relative to: not given
Direction: higher = stronger binding
Residues (chain): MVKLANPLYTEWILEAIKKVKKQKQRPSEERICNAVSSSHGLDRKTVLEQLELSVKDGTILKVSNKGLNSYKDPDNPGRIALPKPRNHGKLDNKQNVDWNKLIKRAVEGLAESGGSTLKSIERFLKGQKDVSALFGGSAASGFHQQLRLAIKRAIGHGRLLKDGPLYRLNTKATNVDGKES
Oligonucleotide	E-score
GCTGAGCA	-0.122
CATGTCTA	0.056
GTGAGCCA	-0.161
AGTGACGG	0.126
GAAGTCTC	-0.0984
CTAGTTAC	-0.00454
CGAGTATA	-0.0358
CGCCAAAC	0.121
GGCAATGA	-0.0824
AGCTATAC	-0.0904
AACTATTC	0.0309
ACCTATGA	-0.0485
GGGGACTA	-0.136
AAGCGTCA	0.0724
GCGTAGAC	0.125
CTGGTCCC	-0.145
CTCAGAAA	-0.197
AGAACTAA	-0.131
GACCGACA	0.199
GCGTATTA	0.0658
ACCCTCAA	-0.219
CAGATTGG	-0.263
CCAGGCAA	-0.0878
ATTCATAA	0.0686
ACATCGAA	0.151

Set 5
Target: Centromere-binding protein 1, full length, His-tagged (CBF1, Saccharomyces cerevisiae, UniProt P17106, residues 1-351)
Chain of UniProt P17106 (whole entry, looked up): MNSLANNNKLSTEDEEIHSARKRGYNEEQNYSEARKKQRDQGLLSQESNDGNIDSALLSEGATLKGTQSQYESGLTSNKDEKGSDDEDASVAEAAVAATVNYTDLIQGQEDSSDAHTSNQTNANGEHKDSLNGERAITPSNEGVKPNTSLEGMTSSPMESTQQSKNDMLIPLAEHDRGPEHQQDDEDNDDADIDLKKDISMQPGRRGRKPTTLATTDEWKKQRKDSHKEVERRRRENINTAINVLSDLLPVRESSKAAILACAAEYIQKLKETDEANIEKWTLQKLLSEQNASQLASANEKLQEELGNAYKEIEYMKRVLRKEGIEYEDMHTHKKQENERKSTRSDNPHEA
Technique: competition protein-binding microarray
Form: double-stranded DNA, one strand shown
Matrix: in vitro
Tested at: 2 µM
Setting: whole 60-bp probe, lowest competitor level
With: Pho4 competitor, 0.05 µM
Direction: higher = stronger binding
Oligonucleotide	fluorescence intensity [a.u.]
CATACCCAACCTTGCACCGTGGGTGAAGATATTTGTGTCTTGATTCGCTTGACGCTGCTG	74.8
TCTCAATTATTGACTCACATGCCTCCTGGTAATACGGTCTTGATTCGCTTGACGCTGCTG	222
GCGCAACAAATACCTGATGTGACGCCTACCCTTTGGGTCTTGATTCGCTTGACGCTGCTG	63.9
GTAAAGGTAAACCATCACGTGCTTTCGAAGATAAATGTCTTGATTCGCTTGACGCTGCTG	7000
TGCGCAACAACTTGGATGGTGGGTGTATGTCTAGAAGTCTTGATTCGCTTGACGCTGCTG	62.9
AAACAAATGGTAATCCACGTGAATAATTGAGACAAAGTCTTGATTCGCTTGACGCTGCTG	844
CAGTGGAAACAAGAAAACGTGCTAAATCCAGAACTCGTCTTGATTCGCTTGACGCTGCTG	236
TACATCCCTTTTACACCCGTGCAAAAAAGGTGTTTGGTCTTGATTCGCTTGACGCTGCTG	96.2
CTACGCTATGGAAACCGCGTGCCAGACTGGTAGAGTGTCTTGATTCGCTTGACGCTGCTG	69
TCCTTCTTACCTTGGCGCATGATGTTGTTTGTGATGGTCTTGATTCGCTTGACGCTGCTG	107
CTTTCCCGATCTTGTAATGTGGGTGTAGCACATTTGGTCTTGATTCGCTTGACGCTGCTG	82.8
GACCCGCCCCTGGGTCACGTGTTGCCTGCGGACCCGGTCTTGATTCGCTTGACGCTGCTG	9010
AAATTAATTATTCAACACGTGATGGAGTTACTCTAAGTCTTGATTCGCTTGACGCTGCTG	6300
AAAGCGGTAATTTGAGTCGTGGGTGCAGATATCTATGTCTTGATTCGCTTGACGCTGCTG	77.5
CGTTCACTCATCCATAATTGATAAATTTGCGAAATTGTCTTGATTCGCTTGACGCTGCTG	93.6
TACATTTATGGCCTGTTCGTGATGGGTCAGCGAGCCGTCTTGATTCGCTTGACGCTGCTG	81.5
CTTCTGTAAATTTGGGAGGTGGGTGGACGCGCCCCGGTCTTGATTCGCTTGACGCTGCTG	81.2
TGTCTTATCTGCTCCTTTGTGATATTACGGTCTCAAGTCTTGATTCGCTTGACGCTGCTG	64.7
GTAAGTAATGTACTTCACGTGTGTTCCACTGGTAATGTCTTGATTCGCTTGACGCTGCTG	657
TGCGCAACAACTTGGCTCGTGGGTGTATGTCTAGAAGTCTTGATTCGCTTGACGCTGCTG	71.7
CTTCTGTAAATTTGTAAAGTGGGTGGACGCGCCCCGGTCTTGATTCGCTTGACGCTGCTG	86.5
TTGTAATGCTTTCGTCTCGTGCCAGGCCTGCGCTAAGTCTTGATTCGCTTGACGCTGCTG	135
CTTTGTGATAGGCTTCACGTGTGAAATTGACACAGAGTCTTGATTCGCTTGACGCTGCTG	871
CCGGGTGATGCTTGACGCGTTTTTGGAAACGATGAGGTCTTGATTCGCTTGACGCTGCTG	69.5

For quick reference, copied from above (set 1):
Substitution	normalised enrichment score
P2N	1.05
E10F	1.94
P2M	0.297
R5A	0.387
T11C	1.57
P1N	1.03
R5V	-0.121
D8K	1.03
V3Q	1.12
R6S	0.891
K4S	1.53
D12S	1.36
